Measured values gathered from unrelated publications.
Parts stem from different laboratories: compare values within a part only.

Study 1 — technique: aptamer microarray, sandwich; form: DNA with 2'F-ANA; matrix: in vitro; tested at: 200 nM; together with: Cy3 exosite-II aptamer, 400 nM; reading: higher = stronger binding; strand: GGTTGGTGTGGTTGG
Target: Prothrombin, mature alpha-thrombin (F2, Homo sapiens, UniProt P00734)
Setting: whole 15-mer aptamer, many near background
Modification	mean fluorescence intensity [a.u.]
2'F-ANA at 3 4 7 8	859
2'F-ANA at 1 2 3 5 6 8 9 12 13 15	119
2'F-ANA at 3 5 6 7 8 11 12	239
2'F-ANA at 6 7 10 11 14 15	92.9
2'F-ANA at 1 2 3 4 9 12 14	78.9
2'F-ANA at 1 4 5 7 9 10 11 13 14	73.4
2'F-ANA at 1 2 3 7 9	231
2'F-ANA at 2 3 7 8 11 14	509
2'F-ANA at 1 2 3 5 6 10 11	47.7
2'F-ANA at 1 4 5 7 11 12	88.9
2'F-ANA at 4 5 6 8 9	116
2'F-ANA at 2 4 7 8 11 14	174
2'F-ANA at 1 4 5 10 12 13 14	73.9
2'F-ANA at 5 10 11 12 15	49.4
2'F-ANA at 2 3 7 8 9 10 11 15	348
2'F-ANA at 1 3 4 5 6 7 9 10 11 13 14 15	51.3
2'F-ANA at 6 7 11 12	728
2'F-ANA at 1 2 3 7 11 12 13	327
2'F-ANA at 2 4 5 11 12	124
2'F-ANA at 1 4 7 10 14 15	44.5
2'F-ANA at 1 6 7 8 9 11	233
2'F-ANA at 4 6 7 10 13 15	67.1
2'F-ANA at 1 2 4 6 7 9 11 12 14 15	57
2'F-ANA at 1 2 4 5 6 7 8 11 13	54.9
2'F-ANA at 3 8 9 13	1020

Study 2 — technique: RNA Bind-n-Seq; form: RNA; matrix: in vitro; tested at: 365 nM; reference: no-protein control; reading: higher = stronger binding
Target: RNA binding protein fox-1 homolog 2, RRM domain, GST-SBP tag (RBFOX2, Homo sapiens, UniProt O43251-10, residues 100-194)
Setting: natural RNA segment, single round, ends assumed
Construct (chain): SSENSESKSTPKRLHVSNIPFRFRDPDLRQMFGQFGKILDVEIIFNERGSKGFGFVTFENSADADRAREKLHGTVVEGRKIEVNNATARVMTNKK
Strand	RBNS enrichment (R)
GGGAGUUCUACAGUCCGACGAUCCUCUAAAGAAACAUUUUGAGCAAGGCAGUUUAGAGAAUCCUAAUGUCUACACUGGCAUAGCACGAGCCAUGUAAGCUUCUUUUUUUUCUAUGCAAGAGUAUUGAUGUAUGUGGAAUUCUCGGGUGCCAA	11.9
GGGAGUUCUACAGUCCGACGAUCUGGCAUAGGGUGAGGCACAGCUUGAAAGGUGGUCAGACCUGCUUGGGCUUCUUUGCUUUUCAAAUGUCCUAGCUCUGUAGUUCGUGCUGUCAUUGGUUUGAUUGUCUCACUGGAAUUCUCGGGUGCCAA	0.63
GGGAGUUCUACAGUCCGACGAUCGCUCUGGAGUGAGGAGGGAGUGACCCCUCAGCCUGUGUAGGGUCCAGUUUUAUGCUCUCGGAAGGCUCAGCAGUGAUUGCUGCCGAGUGGGAAGUAGCUUCUCCCAGCUGUGGAAUUCUCGGGUGCCAA	0.479
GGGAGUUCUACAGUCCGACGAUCAAGUUAAUGUGGGUCACCAUUUUGGUCAGAAGCAUACAUUCCUGUCAGACAACUAGUUGUCUGACAGAAAUGUUAGGCUUCAUGUAUGUUACCCCAGUACUGUUAGAAACUGGAAUUCUCGGGUGCCAA	0.255
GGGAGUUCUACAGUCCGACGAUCCUCCAAGUUUCUGCCUAGGCGCCUGUGCGUUUCCUUUCUGUGACGGGAUUAGCUUAGACAUCCUUGCAAAGCGAUCACUUUCAAUAAAUUGGGAAAUUGCUGCUCCAGCAUGGAAUUCUCGGGUGCCAA	0.543
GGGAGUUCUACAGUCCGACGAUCGUCCCUUUAAGAUUUUUUUAUUCUAAACAAAAUAAAGAAAAUCCUGCUGCUCUGGUCCUUGUGAUAAGCCUCUCUUCGGCAUCUGAGGAGCAGCUGCAGCAAAAUCUAGGUGGAAUUCUCGGGUGCCAA	0.36
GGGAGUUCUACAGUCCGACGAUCUUGUGUUAAAUUGUUCUGUUACACACUUUUGUCUAACCUGUUUUGUUUUUUAUCAUAUAUGCAUUAAAAGUAUUAUGUUUAUCAACAUUUGCUGCUAUUGUGUUAACAUUUGGAAUUCUCGGGUGCCAA	0.642
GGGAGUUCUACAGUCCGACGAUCCCACUCCCACAAUCUCAGGCCUGGUACCCAUCCUCUUUCCACUGUGAGCAGAGCCAGAAGGUAGGUCUGUUCAGAGUCUGUGCCCCUGGACCUGGGGAGUGGAUAUCAGAUGGAAUUCUCGGGUGCCAA	0.517
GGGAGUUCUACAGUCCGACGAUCCUCUUAAAUAUCUCGAUGUAUUUAAUGCCUUGUUUUCUCUCCUGCCGCAGGAUAAAGAAAAUGAUAAACCCACAAAGUGCAUAUUUCAAAUAGCAUAUAUCUGAAAUCGUUGGAAUUCUCGGGUGCCAA	0.331
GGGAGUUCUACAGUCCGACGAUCAAUCAGGAAGCUGAUCACACUUCAUUAGAGGAUCUAGGCAUAGCUGUCUUCCAGUACUGAUAGAAGAUGCUCCUGGGCUUCAUUCUGGAUUGUUAAACAGUAGAAAUGCAUGGAAUUCUCGGGUGCCAA	4.44
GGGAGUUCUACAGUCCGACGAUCGCUUGAGCUACAAUCAGGAGGGAAAUUGGAAGGAUUAGCAGCUUUUAAAAAUGUUUAAAUAUUUUGCUUUGCUAAUGUGCUGAUCCGCACUAACUCAUCUUUGCAAAAGGUGGAAUUCUCGGGUGCCAA	0.46
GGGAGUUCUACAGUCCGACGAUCUUCUGUAAAUCUAUUUCAUAUCUGACCCACCAAACAGAUUUCUCUUUAAUAAAAAUCCUUUUUGUAAGUUCUCUUCUCGUGGGUGUGUGGCAGCGGUGAGCACCCGCCUCUGGAAUUCUCGGGUGCCAA	0.622

Study 3 — technique: universal PBM; form: double-stranded DNA, one strand shown; matrix: in vitro; tested at: not given; reading: higher = stronger binding
Target: Sal-like protein 4, full length isoform B (SALL4, Homo sapiens, UniProt Q9UJQ4-2, residues 1-616)
Setting: 8-mer, flanks averaged, mean of replicates
Strand	E-score
GCTGTTAA	0.116
AATACGCA	0.104
AGGCACTA	-0.144
ACTAAAAC	0.0949
GACGACCA	-0.0741
ATGGAGTG	-0.0471
CCATGAAC	-0.074
ACAGCGCT	-0.0633
TACGGGGA	-0.218
CAGCCGCA	-0.338
AATGTCGC	-0.0608
AAGTCACA	0.204
CTCTAGTA	0.168
CAATACCA	0.214
ATGGAGCA	-0.034
AATTTCGA	0.196
ATGTGAAA	0.261
TACTACAA	0.326
ACTCAGGC	-0.0263
CGGCATAA	0.116
CGGGCGCC	-0.279
GGCATGGA	-0.0411
GCCATCGA	-0.119
CTGGAATA	0.138

Study 4 — technique: protein-binding microarray; form: double-stranded DNA, one strand shown; matrix: in vitro; tested at: 940 nM top; setting: 60-bp whole probe; together with: salmon DNA 0.4 mg/ml; reference: random background probes; reading: higher = stronger binding; shared flanks, not repeated: GCCTAGCAC … GTCTTGATTCGCTTGACGCTGCTG
Target: Interferon regulatory factor 5, full length, phosphomimetic (IRF5, Homo sapiens, UniProt Q13568-2, residues 1-514, S451D/S453D/S456D/S462D)
Strand	fitted relative affinity [z-score]
TTAGAACTGAGTATCAATTAGTGCTAG	0.428
TTAGATATCAGTATCGTTTAGTGCTAG	2.41
GACGGAGTGGACACTGGGGACGTGCTA	-0.375
GACGGACTGGACTATCGGTACGTGCTA	-0.118
TCACCTTTCTCAACCTCACTGTGCTAG	1.64
TCAAGGTCCCTTTTCATACTGTGCTAG	0.245
GACGATTTCAGTTTAGAGACGTGCTAG	0.688
TTAGATCTCAGACTGTATTAGTGCTAG	-0.406
TTAGGTATCGGTTTCGGTTGGTGCTAG	12.7
TTAGGTTCCGGTTTCTGTTAGTGCTAG	5.07
TTAGATTCCAGTGTCGATTAGTGCTAG	0.146
GACGGTTCCGATTTCGGGACGTGCTAG	1.14
GACGGACTGCTGATCCTGACGTGCTAG	-0.693
TTAGGCATCCTTCTCCTTTAGTGCTAG	-0.0534
GACGATTTCAGTCTCGCGACGTGCTAG	0.669
GACGGTTTCGGATATCGGGACGTGCTA	7.45
GACGATTCCAGTTTTGAGACGTGCTAG	0.0729
TAATTTTTACTTTCTGAATGGTGCTAG	1.6
GACGAACTGAGTCTCAAGACGTGCTAG	-0.396
GACGGTATCGGACTGGGGTCGTGCTAG	3.43
TTAGGACTGGGTATCGGCTAGTGCTAG	0.845
TCATTTCTTTAACTCATACTGTGCTAG	1.36
TTAGATATCAGACTGGACTAGTGCTAG	-0.596
TTAGATTTTAGACTGGATTAGTGCTAG	-0.146
GGAAGCTTCTTTTTTATTCTGTGCTAG	0.901

Study 5 — technique: protein binding microarray; form: double-stranded DNA, one strand shown; matrix: in vitro; tested at: not given; reference: not given; reading: higher = stronger binding
Target: Histone acetyltransferase KAT6A, winged helix 2, GST fusion (KAT6A, Homo sapiens, UniProt Q92794, residues 85-181)
Setting: 8-mer, flanks averaged, mean of 2 arrays, mostly near background
Target sequence (chain): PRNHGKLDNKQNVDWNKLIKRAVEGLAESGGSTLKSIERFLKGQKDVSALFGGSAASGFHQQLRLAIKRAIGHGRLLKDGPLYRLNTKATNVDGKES
Strand	E-score
GCTCGCTA	-0.000555
GAGCCCCC	-0.248
GTAGCGGA	0.0588
AAACCTGC	0.0253
ACGAGCTC	0.115
GAACGGCA	0.138
AAGCCGGA	0.257
ACTCTCTA	-0.102
AGAATACA	-0.00788
AGACGGCA	0.178
TACCTCGA	0.0538
ACAAACGA	0.0987
CTGCCCTC	0.0533
GCTTCCAC	0.0497
CTGATTGC	0.0782
CAACCGAC	0.241
CTTCGAGC	0.0472
AAATTGAT	0.0874
ATCCAGAA	-0.0156
CAAGGCAG	0.0235

Some of these lines once more (study 1):
Modification	mean fluorescence intensity [a.u.]
2'F-ANA at 1 2 3 4 9 12 14	78.9
2'F-ANA at 3 8 9 13	1020
2'F-ANA at 5 10 11 12 15	49.4
2'F-ANA at 1 2 3 7 9	231
2'F-ANA at 4 6 7 10 13 15	67.1
2'F-ANA at 1 2 4 5 6 7 8 11 13	54.9
